# Assay results collected from several papers.
# A part holds a random share of what one study measured.

# Study 1
# Target: Centromere-binding protein 1, full length, N-terminal tag (CBF1, Saccharomyces cerevisiae, UniProt P17106, residues 1-351)
# Sequence of UniProt P17106 (whole entry, looked up): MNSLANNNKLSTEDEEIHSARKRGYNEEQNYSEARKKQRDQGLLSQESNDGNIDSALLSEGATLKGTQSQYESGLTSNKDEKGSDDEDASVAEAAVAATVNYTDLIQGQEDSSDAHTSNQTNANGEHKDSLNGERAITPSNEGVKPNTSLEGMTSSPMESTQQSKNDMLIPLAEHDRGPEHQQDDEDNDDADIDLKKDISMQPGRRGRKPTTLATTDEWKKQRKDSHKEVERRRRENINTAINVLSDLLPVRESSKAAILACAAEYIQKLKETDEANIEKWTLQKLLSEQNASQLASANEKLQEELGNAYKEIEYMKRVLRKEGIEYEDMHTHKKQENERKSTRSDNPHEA
# Method: protein-binding microarray
# Molecule type: double-stranded DNA, one strand shown
# Matrix: in vitro
# Tested at: 0.8 µM
# Setting: whole 60-bp probe, no competitor
# Direction: higher = stronger binding
Oligonucleotide,fluorescence intensity
CCTAACTACTATAAATACGTGACATAGCTTCGTACAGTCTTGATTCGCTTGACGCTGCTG,709 a.u.
CTAAAGATCCAAGATACCGTGACATTTCCTATTTTCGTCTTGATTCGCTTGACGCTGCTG,685 a.u.
CTACTTTATATTTGTCACCTTTTCCGTATCGGCTTCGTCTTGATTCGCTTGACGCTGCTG,565 a.u.
CCTAACTACTATAATCACGTTACATAGCTTCGTACAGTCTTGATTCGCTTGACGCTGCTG,1500 a.u.
GAAATGGAATTACCTCACGTTGTTCACATTAGTTAGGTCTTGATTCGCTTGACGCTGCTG,611 a.u.
GAAATAAGCTCACGTGGTGTGGTATATCTTATTTAGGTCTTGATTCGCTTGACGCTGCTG,8950 a.u.
CTAAAAAAAAATTACCGCGTGAACTATGTCATATTCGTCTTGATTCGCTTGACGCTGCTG,551 a.u.
GAATGACGTTAACAACGCACGCCCGCTCCTTGCTAGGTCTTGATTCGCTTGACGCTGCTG,507 a.u.
GAAATTGTTTTTCATAATGTCACGTGCACTATCTAGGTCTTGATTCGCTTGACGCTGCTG,19500 a.u.
CTATTCTTTTCATCTCATATGATTTAGCGTTTTTTCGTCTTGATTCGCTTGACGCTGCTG,584 a.u.
CCTAACTACTATAGCAACACGTCATAGCTTCGTACAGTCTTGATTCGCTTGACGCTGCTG,541 a.u.
GAACTTGACGCGTCTCCGCTGACGCGCCTATATTAGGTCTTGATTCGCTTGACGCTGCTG,487 a.u.
GAAGAAACAGATCTTGATGTTACAGCAAGGTCATAGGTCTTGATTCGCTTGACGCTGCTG,507 a.u.
GAACATTGGCGAAAGGTGATGGTGTAAAGTAACTAGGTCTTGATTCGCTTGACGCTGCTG,503 a.u.
GAAGTACGCTGCCATCACGGATAATTCAATTTATAGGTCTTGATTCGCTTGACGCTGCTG,552 a.u.
GAATTTCCACTAAAACATGTGAAAGTAATTTTCTAGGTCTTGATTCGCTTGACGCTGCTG,714 a.u.
GAAGAAAACTATGCTAACATGATGCCACTACGTTAGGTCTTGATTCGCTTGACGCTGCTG,488 a.u.
CTAGCCTGATGTAATCACGAACTCGAACAAAAGTTCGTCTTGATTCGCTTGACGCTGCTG,583 a.u.
GAACTACGAGGACGCGACGTGACTCAATTGGAATAGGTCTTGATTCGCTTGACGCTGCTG,783 a.u.
CTAATGCCATCTTTTGACGTCATACATAGTTGTTTCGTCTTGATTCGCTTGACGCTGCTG,532 a.u.
CTAATATTCTGATTTCTCGTGATCGAATCTGTTTTCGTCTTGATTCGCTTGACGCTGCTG,945 a.u.
CCTAACTACTATAGTCATGCTCTATAGCTTCGTACAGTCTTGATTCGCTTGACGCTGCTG,613 a.u.
GAAACTTTATGTGACATCAGCATCCTAAGTACCTAGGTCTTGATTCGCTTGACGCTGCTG,507 a.u.
CCTAACTACTATAATTAGCACGTATAGCTTCGTACAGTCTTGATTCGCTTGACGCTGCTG,532 a.u.
CTAGTAGAAGCTCTCCTCATGACTTTGGGCTATTTCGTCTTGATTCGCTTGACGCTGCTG,502 a.u.

# Study 2
# Target: RING finger protein unkempt homolog, zinc fingers 1-6, GST-SBP tag (UNK, Homo sapiens, UniProt Q9C0B0, residues 30-357)
# Sequence of UniProt Q9C0B0 (30-357, looked up): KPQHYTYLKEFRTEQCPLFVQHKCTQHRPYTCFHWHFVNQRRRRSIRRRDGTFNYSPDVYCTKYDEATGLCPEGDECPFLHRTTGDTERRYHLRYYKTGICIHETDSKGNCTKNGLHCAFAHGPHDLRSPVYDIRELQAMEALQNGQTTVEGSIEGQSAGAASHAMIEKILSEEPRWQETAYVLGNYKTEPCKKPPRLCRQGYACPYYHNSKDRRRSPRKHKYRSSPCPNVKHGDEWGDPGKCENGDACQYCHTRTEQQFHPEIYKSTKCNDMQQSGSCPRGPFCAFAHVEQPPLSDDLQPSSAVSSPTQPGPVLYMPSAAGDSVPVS
# Method: RNA Bind-n-Seq
# Molecule type: RNA
# Matrix: in vitro
# Tested at: not given
# Setting: RNA with constant flanks, human and mouse sites, ends assumed
# Reference: input RNA pool
# Direction: higher = stronger binding
Oligonucleotide,bound/input enrichment [ratio]
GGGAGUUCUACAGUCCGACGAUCUAGACUUCAACAAGAAAAUCCUUCAUACAGCCUGGCAUCCCAAGGAAAACAUCAUUGCUGUAGCAACUACAAACAAUCUGUAUAUAUUUCAAGACAAAGUGAAUUAGGCUGGCAUUCUCUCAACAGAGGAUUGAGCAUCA,0.538
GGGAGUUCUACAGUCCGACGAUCUGCCAAGUCCAUCUUUGCCCAGUCAAUUCAGUGAUUGAUAGCAAUUUACAUUAAUUGCAGUAAAGCUCUUUGGAUUAGAAAUUAGUGUGGGGAAAGCUUAUUCUGUUGUUGUUUUUGUUUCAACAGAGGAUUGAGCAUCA,1.37
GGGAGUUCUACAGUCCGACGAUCGAUAUUCUAAGAUCACAGUGGUCGCCUGCUUUAACAAUUUCUAAAGUUCUUUUAUCCAUUUGUUCACUGCUAUGUGAUCCAAACCCAGAUGACCCCCUAGUGCCAGAGAUUGCACGGAUCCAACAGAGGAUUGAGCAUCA,0.439
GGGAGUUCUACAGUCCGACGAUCGGGAGCCAAGUUCUGUGAAGUACUCUACUUCACCAGCAAGUUCAGACUACUCUUGGAAAUCACUUGAAAAACAAAAAAAAUAUACAUACUCUGGAUCGCGGGAUGUCAGUAAACAUGAGCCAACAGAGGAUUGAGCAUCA,0.394
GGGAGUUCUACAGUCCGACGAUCGUCUCCAUUUUGUCAGCCAUGGAGCUCAUUUGGAACCUGUGUGAGAUUCUCUUUAUUGAAGUAGCACCAGCUGGCCCUCUCCUCCUUCACCUUCUUGACUGGGUCCGACUGCACGUGUGCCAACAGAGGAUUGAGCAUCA,0.281
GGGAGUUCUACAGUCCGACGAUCUAAAAUUUGCAAGUGUAUGGAGGACUAACCUCACUGACAGGAGGGGAUUCCACCUGGGAUUAGCUUUAUGAUUGUUGAUUGCCUAUUUUGCCAUUUAUAAACUGAAAGAAGGCACUAAAGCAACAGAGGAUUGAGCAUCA,0.293
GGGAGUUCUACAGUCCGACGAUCUUAUACCAAGUGGAGUAUGCCAUGGAAGCCAUUGGACAUGCAGGCACCUGUUUGGGGAUUUUAGCCAAUGAUGGAGUUUUGCUUGCAGCGGAGAGGCGCAACAUCCACAAGCUUCUUGAUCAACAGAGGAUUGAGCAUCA,0.258
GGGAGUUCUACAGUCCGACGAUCGACUACCAGGCUGCUGGCGAUGAUGAGAUCUCCUUUGACCCUGAUGACAUCAUCACCAACAUAGAAAUGAUUGACGAUGGCUGGUGGCGUGGGGUGUGCAAGGGCAGAUACGGGCUCUUCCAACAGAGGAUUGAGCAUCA,0.266
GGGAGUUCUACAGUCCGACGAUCGUUUUCAUGCCCGGCCUUUGUUCCCCCCGUCCAUGUGUCCUUUAGUUUCAAACAGAUCUUUAUAGUUUGUGCUUCAUAAGCCAAUUCUUAUUAUGAUUUUGGGGGACUGUUCUUCAAAGACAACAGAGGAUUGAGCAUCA,0.614
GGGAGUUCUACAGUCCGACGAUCAGACACAAAGCAGCCACCAAAGGCUCAAGGAAACCCAAUAUAAAGAAGGAGUCUAAGUCUUCCCCUCGACCUACAGCAGAGAAAAAGAAAUAUAAGUCAACAAGUAAAUCUUCCCAGAAACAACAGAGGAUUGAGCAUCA,0.355
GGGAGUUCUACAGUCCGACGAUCGUGCCUGAGGUGAAAAAAGUUUGUAAGUUAUUGAAUUAUGGUGUUCAUUAGAACAGCUACUAGCUGAUUCCCCUAUUUUAACAAACUGACAAGAGCACAUCCAUAAAAUGAAAACCUGUUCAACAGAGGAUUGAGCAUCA,0.372

# Study 3
# Target: Histone acetyltransferase KAT6A, winged helix 1, GST fusion (KAT6A, Homo sapiens, UniProt Q92794, residues 1-85)
# Method: protein binding microarray
# Molecule type: double-stranded DNA, one strand shown
# Matrix: in vitro
# Tested at: not given
# Setting: 8-mer, flanks averaged, mean of 2 arrays, mostly near background
# Reference: not given
# Direction: higher = stronger binding
# Construct (chain): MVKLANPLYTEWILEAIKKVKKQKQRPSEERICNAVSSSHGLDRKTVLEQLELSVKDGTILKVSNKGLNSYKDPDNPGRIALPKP
Oligonucleotide,E-score
GATCAACA,-0.105
CCAATCTA,-0.253
CGGAAACG,0.265
AACGACGC,0.0806
ACGGATGG,0.117
GAGCGCAA,0.174
CCTTCCGC,0.261
ACTCGAGG,-0.203
CGGGCTCA,0.192
AATAATCT,-0.196
CCAAAGTA,-0.179
AGGAGCAG,-0.0731
AGCCAGTC,-0.155
AGCAGAAG,-0.053
AGACGTAG,-0.207
CCACCATC,-0.103
GATACGAA,-0.157
AAGAAAGT,-0.089
CTTGGCTC,-0.19
TCTTGGCA,-0.217

# Study 4
# Target: PABPC1L2, full length, GST fusion (mouse, UniProt A0ABA7IW68)
# Method: RNAcompete
# Molecule type: RNA
# Matrix: in vitro
# Tested at: 20 nM
# Setting: 7-mer, probes averaged, single round
# Reference: mean of 7-mers
# Direction: higher = stronger binding
# Residues (chain): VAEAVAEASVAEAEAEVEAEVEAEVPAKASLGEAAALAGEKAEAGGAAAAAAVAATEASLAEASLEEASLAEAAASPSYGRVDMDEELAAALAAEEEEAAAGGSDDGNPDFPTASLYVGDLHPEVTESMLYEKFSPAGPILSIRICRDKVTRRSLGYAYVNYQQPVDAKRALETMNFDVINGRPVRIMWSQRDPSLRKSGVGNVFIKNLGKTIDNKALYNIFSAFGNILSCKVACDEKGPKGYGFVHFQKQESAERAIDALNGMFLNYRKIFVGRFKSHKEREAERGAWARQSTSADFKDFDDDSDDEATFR
Oligonucleotide,7-mer Z-score
CGCCGCU,-0.153
UAUGAGG,0.0189
GGCCUAU,-0.112
CAUGCCC,-0.28
CUCCUAC,-0.325
AUCAUAC,-0.202
GCAACCG,-0.115
CACUUUA,-0.012
AAUGACA,0.234
GAUAAUC,-0.233
ACCUCAC,-0.155
ACCGUCC,-0.36
AACACAG,0.408
AAAUUCA,1.35
ACCCCUC,-0.311
UUUUGUG,-0.345
AAGAUAU,0.213
GCCCCUU,-0.396
CCAAAUU,-0.101
CGCAUUU,-0.34
CGAGGUA,0.1
GCUAAUA,-0.0772
AAGAGCC,0.782
GGGUAUA,0.16
GCAUGCC,-0.0156

# Excerpt of the above (study 3):
Oligonucleotide,E-score
CCTTCCGC,0.261
ACTCGAGG,-0.203
CGGGCTCA,0.192
AATAATCT,-0.196
